# Assay results collected from several papers.
# Every numbered part comes from another study and shows a few of its results, in no order.

# Set 1
# Target: RNA binding protein fox-1 homolog 2, RRM domain, GST-SBP tag (RBFOX2, Homo sapiens, UniProt O43251-10, residues 100-194)
# Technique: RNA Bind-n-Seq
# Molecule type: RNA
# Sample: in vitro
# Tested at: 365 nM
# Setting: natural RNA segment, single round, ends assumed
# Reference: no-protein control
# Direction: higher = stronger binding
# All sequences stand within: GGGAGUUCUACAGUCCGACGAUC … UGGAAUUCUCGGGUGCCAA
# Target sequence (chain): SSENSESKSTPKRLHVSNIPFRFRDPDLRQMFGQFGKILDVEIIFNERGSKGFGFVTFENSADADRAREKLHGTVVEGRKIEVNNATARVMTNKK
Sequence,RBNS enrichment (R)
AUGUACAGGUUCGAUCGUUUCUAUAGAAAUGGGUUUAUCUAAGAAAAGUCUUGGUUUGUCUUGCUGCUGUAAAAGGCCUUUCCAAACCCCUCCUUUUAUUCCUGUUUCCC,0.576
CAUCCCACCAGGUCCCUGGACUCACGGCCUUUCCUUCAUUUGCCAUUCACAUUGCUGCUCACAAAACAGAACUCGGUGACUUUGUUUUGAUAUAGUUUUGUGGACCAUCU,0.37
GGGGCGUGUGCCCCAAGGGGUCUGAUCCCCUCCUUAGUCUUAGCUCAUGGGGCGGCUCAUGAGGAGCUGGGGGCAGGGUAGAAUGGGACCGAGCAGGAACAGAGGCUGCA,1.85
AAUAAUAGAAUGAGCACCCAUUCCAAAGCUUUAUUACCAGUGGCGUUGUUGCAUGUUUGAAAUGAGGUCUGUUUAAAGUGGCAAUCUCAGAUGCAGUUUGGAGAGUCAGA,16.2
GUUUGGGAUAUUAAAACACAAAGUCCUUAACAUGCCAGGCUCAAGGUCUUAUAAGAGUUCUAGAUUUUUAAGAGAAUUAGACAAAUUUGUGUGUGUUAGAAGCCCAUUCA,0.798
AUCCUUUGCCACCUUGAGAUGAUUUAUAGGUAAUAUAAUCUACAUUUGAGUUUAUUCAGACUUAAUUUAGUGCCCUACUUGUGUUAUAAUGGAAACUUAGAAGGUCAGAA,0.428
ACACAGGUGGGGACUGGGCACAGCUCUUCACACCAUUCAUUCUGGUCAUUUCCCCCAAAGGCAUCCCAGCCUGGGGGCCAGUGGGGAACUGAGGGCAAGGGGAUAUAGUG,0.492
CUUUCUCCACUUUUCAUCAUUUUGUGUUUGAUGAUUUAAAAGAAGCUUGACUAUUCCUCAGCUCUUGUGCCAAGGAGGGUUUUUUUUUUUUAAGACUCUUAAACUCAAAA,0.345
GUAUCCCUCACUUACCAAGAGGAGAAUGGAGGGAUAAUGGACUCACCCUAGCCUAGGGCUUCGACAUUGCAUGCUGGGAUCCAGCUCCUACCCUUCCUGCACUCCCUUCC,8.25
GUGAAUAAGGAUCCUGUGGGCACUGCUGGGUCCACUCUGCAAAUGCCAAGACUAUCAAAGGAACGUAUUGUCGCUUCUGGCUCCUUCCCAGGUGGGCUAGCAUCUGUGAG,0.351
CAAAUAGCGACAUUUCCAGUUUCUCUUAAAAACCGUGUUUGGUUUCAGUUGGGAUAGGCUUGUUUUGUCUGUUGAAAAUGUUUCUAGUUUUUUUUCUUUCAUUUUUCUCU,0.546
UGCCCACUCCCUCAGGGCCCACAUGUCCUGCCACUCGCCACUCUGAGCACGAGUUCACCUUCCAGAUGUGGCCAGGGUGUGCCAGCUCCUCUCUCCUGUGCGUUGGAACC,0.455

# Set 2
# Target: Fragile X messenger ribonucleoprotein 1, C-terminal low-complexity region (Fmr1, Mus musculus, UniProt P35922)
# Technique: RNA Bind-n-Seq
# Molecule type: RNA
# Sample: in vitro
# Tested at: 200 nM
# Setting: whole 134-nt RNA, ends assumed
# Together with: 150 mM KCl
# Reference: input library
# Direction: higher = stronger binding
# All sequences stand within: GGGAGUUCUACAGUCCGACGAUC … UGGAAUUCUCGGGUGUCAAGG
Sequence,log2 enrichment
CAAGUCCUGUGCUACACAUCGUAUGUACCGAAUCGGUUUUUUUGGUGGAAAAAGGAAAGUAUUAUGUUACGCCGUUCGGAUCUGCACUUC,-0.562
CCUCAAGUCCUGUGCUACACAUCGUAUGUACCGAAUCGGUUUGGUGGAAAGGAAAGUAUUAUGUUACGCCGUUCGGAUCUGCACUUCCAG,0.269
ACCAUGCAGGUGGGCAUCUUUGGGAAGUGGGGCAAGGGGGGGAUAGGGAGGUGGGUAACACUUUGGGAACAGGUGGUCCCAGGUCGUUUC,0.873
UGGGAGGUGGAUUUUGUUUAAUUUUUUAGCUCAUUUCCAGGGGUGGGAAUUUUUUUUUAAUAUGUGUCAUGAAUAAAGUUGUUUUUGAAA,0.195
GUCCUGUGCUACACAUCGUAUGUACCGAAUCGGUUUUUGGGGUUUUUGGGGUUUUUGGGAAAGUAUUAUGUUACGCCGUUCGGAUCUGCA,-0.145
AGUCCUGUGCUACACAUCGUAUGUACCGAAUCGGGUGGGUUUUUUUGGGAAAAAGGGAAAGUAUUAUGUUACGCCGUUCGGAUCUGCACU,0.221
UCAAGUCCUGUGCUACACAUCGUAUGUACCGAAUCGGUUUGGGUUUGGGGUUUGGAAAGUAUUAUGUUACGCCGUUCGGAUCUGCACUUC,-0.429
AGUCCUGUGCUACACAUCGUAUGUACCGAAUCGGGGUUUUUGGGGAGGGGAAAGGGGAAAGUAUUAUGUUACGCCGUUCGGAUCUGCACU,0.56
CCUGUGCUACACAUCGUAUGUACCGAAUCGGGGCCCCCCGGGCCCCCCGGCCCCCCGGGGAAAGUAUUAUGUUACGCCGUUCGGAUCUGC,-0.728
CCUGUGCUACACAUCGUAUGUACCGAAUCGGAAAAAAAGGAAAAAAAGGAAAAAAAGGGGAAAGUAUUAUGUUACGCCGUUCGGAUCUGC,-0.742
ACCAUGCAGCUGGGCAUCUUUGGGAAGUGGGGCAAGGGGGGGAUAGGGAGGGGGGUAACACUUUGGGAACAGGUGGUCCCAGGUCGUUUC,1.15
AAGUCCUGUGCUACACAUCGUAUGUACCGAAUCGGGGAAAGGGGAAAGGGGUGGGGAAAGUAUUAUGUUACGCCGUUCGGAUCUGCACUU,0.462
CUGUGCUACACAUCGUAUGUACCGAAUCGGGGUUUUUUUGGGGAAAGGGGUUUUUUUGGGGAAAGUAUUAUGUUACGCCGUUCGGAUCUG,-0.319
CCUGUGCUACACAUCGUAUGUACCGAAUCAAAUUUUUUUAAACCCCCCCAAACCCCCAAAAAAGUAUUAUGUUACGCCGUUCGGAUCUGC,-0.213

# Set 3
# Target: RING finger protein unkempt homolog, zinc fingers 1-6, SBP tag (UNK, Homo sapiens, UniProt Q9C0B0, residues 30-357)
# Chain of UniProt Q9C0B0 (30-357, looked up): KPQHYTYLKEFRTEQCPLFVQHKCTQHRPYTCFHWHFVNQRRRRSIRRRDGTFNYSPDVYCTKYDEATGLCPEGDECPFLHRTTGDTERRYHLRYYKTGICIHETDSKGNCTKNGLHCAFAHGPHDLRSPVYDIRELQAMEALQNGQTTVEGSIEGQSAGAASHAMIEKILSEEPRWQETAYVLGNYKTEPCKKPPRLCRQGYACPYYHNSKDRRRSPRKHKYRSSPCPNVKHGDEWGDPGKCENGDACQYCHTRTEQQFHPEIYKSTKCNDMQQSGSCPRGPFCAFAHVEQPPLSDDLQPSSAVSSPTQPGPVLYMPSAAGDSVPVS
# Technique: RNA Bind-n-Seq
# Molecule type: RNA
# Sample: in vitro
# Tested at: 100 nM
# Setting: RNA with constant flanks, vertebrate orthologous sites, ends assumed
# Reference: input RNA pool
# Direction: higher = stronger binding
# All sequences stand within: GGGAGUUCUACAGUCCGACGAUC … CAACAGAGGAUUGAGCAUCA
Sequence,bound/input enrichment [ratio]
UUUUGCUUUCAGGUUGUGGCUGAUUUUGUUAAUCCUUCUUUCCUUACGAGUCCUUUUCUUUGCACCCUCCAUAUCCCUUCUUUGACUCAGACAAGUGUGGUAUAUUUUACUUAGUCAUUG,0.496
UCCCAGCACUCUGAUAAAAAGUGUGGACUGGUUGCUUGUAUUUUCGUUAUUCUUUUUAAUUAGUUUUAUUAUGUAUGCUACCAUUCGAACUGAGAGCAUUCGGUGGCUAAUUCCAGGACA,1.9
UCUCUUGCUUAACUGUGUCCGAAGUUGCUAUGAGGAUUGGAAACAUUCAUUAGUUUCAUGUAGAACUACACUGGCAGGUGCUCAGUUCCCAUCAUAGCAAGAUCAAAUACCAUCACAGUA,0.64
UGGGUUACUCCUAUUAUUAUCAAGUAGCUGGAAUUGUGAAGGUCGGAGUAGUUAGAUCUUUAGCUUUUAUUCCUUAUUUUUUUUUGUAUUACUAUCCAUGUGUAUAAAUUAUUGAUCAUG,4.61
GCCAAGGGACACCCAGCGGGGCAAGGAGCGACCCAAGCCAGCAAAGGUGGGGCAGGAUCGCUGCCAUCUGCGUCGGCCAGGCUGCACUCACUGCCCUGUGCGCCCCUCUGGUGCAAAACC,0.26
UGUCUGCCUCAUUCUGAAAUUUACACAGUAGACCAUUUGUCAUCCAUGCUGUCCCACAAAUAGUUUUUUGUUUACGAUUUAUGACAGGUUUAUGUUACUUCUAUUUGAAUUUCUAUAUUU,1.29
CAAAUCCUGGUUACUGUGAUAUUUAAAACAUGCACAGUACUCAUUUUUCCCAAAUGAUUCUAGUAAUUGCCUAGAAUUAUCUUUCUCUUACCUGUUAUUUAUCAAUUUUUCCCAGUAUUU,0.929
AAGCCCUAGUUCUUGAACCAACACCCAUAAAAGAUUUAGAAAAAAGUUUACAACAUAAUCUAGUUUACGAAGACGCCUUGUGCUAGAAUACUUUUUAAAAAGUAUUUUUGAAUACCAUUA,0.741
CCCUCUGAAUCCCAUUUCUUCUGUUUCAUAGUGCAGAAGUGUUCCUUUCAAUUUUAUUCUUAGUGGACUUGUUUUAAUUUUAGGGAAAUUUUCAGUACAGAUACUGUGAGCUUACAUGGA,1.56
AGAAAACUUUAACCAAGAAUCAGAAGGUAGAAAUACAGGACCAUGGUUGUCUUCCUCACUUAGAAAUAGAUGCACACCUUUGUUCUCUAGAAGGAGGCGAGAGGGAAGAGAUGAGUCUUC,0.69
GUUGUGACCCAUUUAACAUACAUAAAAAAUUAGCCAAAAAAAAUUUGCAUGUAAUUGACUUAGAUGAUGCCACUUUUCUGAGUGCUAAAUUUGGAAGACAGCUUGUACCUGGUUGGAAGC,1.44

# Set 4
# Target: Interferon regulatory factor 5, full length, phosphomimetic (IRF5, Homo sapiens, UniProt Q13568-2, residues 1-514, K96S/S451D/S453D/S456D/S462D)
# Technique: protein-binding microarray
# Molecule type: double-stranded DNA, one strand shown
# Sample: in vitro
# Tested at: 250 nM
# Setting: 60-bp whole probe
# Together with: salmon DNA 0.4 mg/ml
# Reference: random background probes
# Direction: higher = stronger binding
# All sequences stand within: GCCTAGCAC … GTCTTGATTCGCTTGACGCTGCTG
Sequence,log fluorescence [z-score]
ATAGGACTGGACACTGGGTTAGTGCTA,-0.422
TCATCTTTCCCTGCCCCATGGTGCTAG,0.959
GACGTTATCGGGACTGGGGACGTGCTA,1.04
TCACTTCTGCTTCCTCAGACTGTGCTA,0.566
TTAGGACTGGGGTTCGGTTAGTGCTAG,-0.487
GACTGACTGGGTTTCGGGACGTGCTAG,2.38
GACGATCTTAGTCTCGAGACGTGCTAG,0.0639
TCAGCTTTCTTTACCACACTGTGCTAG,1.17
TTAGGACTGCTTATCCTTTCGTGCTAG,0.443
GACGGTCTGGACACTGGGGACGTGCTA,-0.59
TTCGGTTTCGACTTTCGGTTAGTGCTA,11
TTAGGTAACCTACTGCTTTAGTGCTAG,0.00879
TTAGGTATCGGAATCGGTTAGTGCTAG,3.33
TCAAGTTTGTATATATTACTGTGCTAG,0.522
TCCGTATGGATGGCCAATTGGTGCTAG,-0.64
ATAGAACTGAGTTTCGATTAGTGCTAG,9.09
TCAACTTTCTATGTCTGACTGTGCTAG,2.95

# Repeated from above (set 3):
Sequence,bound/input enrichment [ratio]
UUUUGCUUUCAGGUUGUGGCUGAUUUUGUUAAUCCUUCUUUCCUUACGAGUCCUUUUCUUUGCACCCUCCAUAUCCCUUCUUUGACUCAGACAAGUGUGGUAUAUUUUACUUAGUCAUUG,0.496
UCUCUUGCUUAACUGUGUCCGAAGUUGCUAUGAGGAUUGGAAACAUUCAUUAGUUUCAUGUAGAACUACACUGGCAGGUGCUCAGUUCCCAUCAUAGCAAGAUCAAAUACCAUCACAGUA,0.64
GCCAAGGGACACCCAGCGGGGCAAGGAGCGACCCAAGCCAGCAAAGGUGGGGCAGGAUCGCUGCCAUCUGCGUCGGCCAGGCUGCACUCACUGCCCUGUGCGCCCCUCUGGUGCAAAACC,0.26
AGAAAACUUUAACCAAGAAUCAGAAGGUAGAAAUACAGGACCAUGGUUGUCUUCCUCACUUAGAAAUAGAUGCACACCUUUGUUCUCUAGAAGGAGGCGAGAGGGAAGAGAUGAGUCUUC,0.69
UCCCAGCACUCUGAUAAAAAGUGUGGACUGGUUGCUUGUAUUUUCGUUAUUCUUUUUAAUUAGUUUUAUUAUGUAUGCUACCAUUCGAACUGAGAGCAUUCGGUGGCUAAUUCCAGGACA,1.9
UGUCUGCCUCAUUCUGAAAUUUACACAGUAGACCAUUUGUCAUCCAUGCUGUCCCACAAAUAGUUUUUUGUUUACGAUUUAUGACAGGUUUAUGUUACUUCUAUUUGAAUUUCUAUAUUU,1.29
UGGGUUACUCCUAUUAUUAUCAAGUAGCUGGAAUUGUGAAGGUCGGAGUAGUUAGAUCUUUAGCUUUUAUUCCUUAUUUUUUUUUGUAUUACUAUCCAUGUGUAUAAAUUAUUGAUCAUG,4.61
AAGCCCUAGUUCUUGAACCAACACCCAUAAAAGAUUUAGAAAAAAGUUUACAACAUAAUCUAGUUUACGAAGACGCCUUGUGCUAGAAUACUUUUUAAAAAGUAUUUUUGAAUACCAUUA,0.741
